# Experimental data pooled from the literature.
# Protocols differ between the studies behind these lines.
# Cell line: UACC-62
Structure (SMILES),test,conditions,how to read,quantity,result
CC(=O)OC[C@H]1O[C@@H](Sc2sc(C(=O)c3ccc(Br)cc3)c(N)c2-c2nc3ccccc3s2)[C@H](OC(C)=O)[C@@H](OC(C)=O)[C@@H]1OC(C)=O,SRB,"10 µM, 48 h",reference: untreated,growth,89.3%
COc1ccc2c(c1)/C(=N\Nc1nnc3n1N=C(c1ccccc1)CS3)C(=O)N2,"cell growth or viability, SRB",10 µM,,inhibition,23%
CC(=C(c1ccc(O)cc1)c1ccc(Cl)cc1)c1ccc(Cl)cc1,"cell growth or viability, SRB",,,GI50,0.5 µM
CC/C=C\C/C=C\C/C=C\C/C=C\C/C=C\C/C=C\CCC(=O)Nc1ccn(C2OC(CO)C(O)C2(F)F)c(=O)n1 (centres unmarked),"cell growth or viability, SRB",,,GI50,0.0494 µM
CC(=O)OC[C@H]1O[C@@H](Sc2sc(C(=O)c3ccc(C)cc3)c(N)c2-c2nc3ccccc3s2)[C@H](OC(C)=O)[C@@H](OC(C)=O)[C@H]1OC(C)=O,SRB,"10 µM, 48 h",reference: untreated,growth,57.3%
COc1ccc(C2=Nn3c(NN=C4C(=O)N(Cc5ccccc5)c5ccc(Cl)cc54)nnc3SC2)cc1,"cell growth or viability, SRB",10 µM,,inhibition,21%
CC(Cc1ccc(Cl)cc1)=C(c1ccc(Cl)cc1)c1ccc(OCCN(C)C)cc1,"cell growth or viability, SRB",,,GI50,5.19 µM
C=CCc1ccc(O)c(-c2cc(CC=C)ccc2OCCCCCCCCCC[P+](c2ccccc2)(c2ccccc2)c2ccccc2)c1,"autophagy, immunoblotting","0.5 µM, 24 h",,LC3-II/LC3-I ratio,3.2

# Excerpt of the above:
Structure (SMILES),test,conditions,how to read,quantity,result
CC(=C(c1ccc(O)cc1)c1ccc(Cl)cc1)c1ccc(Cl)cc1,"cell growth or viability, SRB",,,GI50,0.5 µM
